Experimental data collected from several papers.
Parts stem from different laboratories: compare values within a part only. “And” joins repeats or separate records; there may be more than shown. ± marks the error that the study gave. Converted amounts (≈) assume the structure as drawn.
UniProt P35372, sequence (whole entry, looked up): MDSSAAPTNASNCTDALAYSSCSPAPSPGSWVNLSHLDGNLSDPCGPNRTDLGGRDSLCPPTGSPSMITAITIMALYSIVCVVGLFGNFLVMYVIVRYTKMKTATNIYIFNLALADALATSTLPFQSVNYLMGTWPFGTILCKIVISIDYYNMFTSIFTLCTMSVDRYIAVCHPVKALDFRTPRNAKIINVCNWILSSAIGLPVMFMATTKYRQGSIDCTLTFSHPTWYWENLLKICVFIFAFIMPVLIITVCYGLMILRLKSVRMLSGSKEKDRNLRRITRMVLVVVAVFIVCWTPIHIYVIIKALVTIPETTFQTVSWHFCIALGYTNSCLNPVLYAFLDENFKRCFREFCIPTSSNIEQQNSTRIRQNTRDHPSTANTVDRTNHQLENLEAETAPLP
UniProt P41143, sequence (whole entry, looked up): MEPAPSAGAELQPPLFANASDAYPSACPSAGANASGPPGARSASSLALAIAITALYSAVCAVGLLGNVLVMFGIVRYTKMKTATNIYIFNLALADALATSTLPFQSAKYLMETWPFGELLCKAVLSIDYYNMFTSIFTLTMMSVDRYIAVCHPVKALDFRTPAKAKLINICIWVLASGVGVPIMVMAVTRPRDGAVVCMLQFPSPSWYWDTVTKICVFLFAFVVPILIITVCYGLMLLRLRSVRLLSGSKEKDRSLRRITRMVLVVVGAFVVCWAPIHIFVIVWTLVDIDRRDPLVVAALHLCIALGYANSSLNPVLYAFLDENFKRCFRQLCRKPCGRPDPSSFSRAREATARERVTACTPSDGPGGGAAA

Study 1 — effect on: metabolic stability; matrix: liver microsomes
SMILES: Cn1cc(-c2cccc(CN3CCC4(CC3)COc3c4ccc4c3CN([C@H]3CCC(=O)NC3=O)C4=O)c2)cn1
host | time | compound remaining [%]
rat | 15 min | 88.9
mouse | 15 min | 93.1
human | 5 min | 99.2
monkey | 0 h | 100
monkey | 15 min | 76.2
monkey | 5 min | 92.7
mouse | 0 h | 100
rat | 5 min | 90.7
monkey | 45 min | 42.4
human | 15 min | 96.5

Study 2 — organism: Staphylococcus aureus; strain: USA300
Structure (SMILES): CCCCC[C@@H]1CC(=O)N[C@@H](C(C)C)C(=O)N[C@H](CCC(=O)O)C(=O)N[C@@H](CCCNC(=N)N)C(=O)NCC(=O)N2CCC[C@H]2C(=O)N[C@@H](CC(C)C)C(=O)N[C@H](CCC(N)=O)C(=O)N[C@@H](CCC(=O)O)C(=O)N[C@H](Cc2ccc(O)cc2)C(=O)N[C@H](Cc2c[nH]c3ccccc23)C(=O)NCCCC(=O)O1
added | MIC [mg/L]
menaquinone 8 µg/mL | 64 (≈ 43.1 µM)
ubiquinone 0 µg/mL | 4 (≈ 2.69 µM)
menaquinone 0.125 µg/mL | 4 (≈ 2.69 µM)
ubiquinone 64 µg/mL | 8 (≈ 5.38 µM)

Study 3 — effect on: binding
Structure (SMILES): O=C1CC[C@H](Nc2ccc(N3CCNCC3)c(F)c2)C(=O)N1
Target: Protein cereblon (CRBN, Homo sapiens, UniProt Q96SW2)
UniProt Q96SW2, sequence (whole entry, looked up): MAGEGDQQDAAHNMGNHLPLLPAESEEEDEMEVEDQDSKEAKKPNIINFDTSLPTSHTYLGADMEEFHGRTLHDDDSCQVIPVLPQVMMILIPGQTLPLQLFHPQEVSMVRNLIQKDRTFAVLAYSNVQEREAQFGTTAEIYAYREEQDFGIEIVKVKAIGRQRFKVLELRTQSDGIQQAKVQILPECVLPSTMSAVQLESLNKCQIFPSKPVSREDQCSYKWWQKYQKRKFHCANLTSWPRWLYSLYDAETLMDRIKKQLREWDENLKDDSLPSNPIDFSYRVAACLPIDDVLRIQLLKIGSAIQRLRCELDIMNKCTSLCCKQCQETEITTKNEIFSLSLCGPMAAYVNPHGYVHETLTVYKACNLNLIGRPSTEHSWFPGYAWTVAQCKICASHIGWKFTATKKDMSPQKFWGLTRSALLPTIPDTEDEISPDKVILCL
tested at | inhibition
370.37 nM | 52.6%
10000 nM | 100% and 94.8%
1111.11 nM | 72.3% and 77.1%

Mixed results
Structure (SMILES) | target | mode | technique | cell line | tested at | measurement | result
N=C(N)NCCCCCN1CC[C@]23c4c5ccc(O)c4O[C@H]2c2nc4ccccc4cc2C[C@@]3(O)[C@H]1C5 | Delta-type opioid receptor, with GoB (OPRD1, Homo sapiens, UniProt P41143) | – | – | human cells | – | Emax | 90 ± 4%
N=C(N)NCCCCCCN1CCC23c4c5ccc(O)c4OC2c2nc4ccccc4cc2CC3(O)C1C5 (centres unmarked) | OPRM1 (Homo sapiens, UniProt P35372) | competitor | radioligand binding | – | 100 pM | specific binding | 146% and 110% and 96.1%
NC(=O)NCCCCCCN1CCC23c4c5ccc(O)c4OC2c2nc4ccccc4cc2CC3(O)C1C5 (centres unmarked) | Delta-type opioid receptor, with β-arrestin2 (OPRD1, Homo sapiens, UniProt P41143) | agonist | – | – | – | EC50 | 1.23 µM

Repeated from above (study 2):
added | MIC [mg/L]
menaquinone 0.125 µg/mL | 4 (≈ 2.69 µM)
ubiquinone 0 µg/mL | 4 (≈ 2.69 µM)
